Experimental data gathered from unrelated publications.
Compare with care: the assays were run in different laboratories.
Target: Serine/threonine-protein kinase 38 (STK38, Homo sapiens, UniProt Q15208)

Nc1ncc(-c2cc(-c3cnn(CC(F)(F)F)c3)ncc2F)nc1C(=O)NC1CNCC(F)C1 (centres unmarked) has a remaining activity of 90.7% (enzyme activity; 1 µM; relative to: DMSO control).
With CNC1C[S+]2CC[S+]3CC[S+](C1)[Ru-4]321([N]=C=S)[n]2c3ccc(OC)cc3c3c4c(c5cc(F)c[n+]1c5c32)C(=O)NC4=O (centres unmarked) the remaining binding was 100% (KinomeScan; 0.1 µM; relative to: untreated).
CN1CCN(Cc2ccc(-c3ccc(CO[C@H]4CCC[C@@H]4NC(=O)c4cc(-c5cnn(C)c5)cnc4N)cc3)cc2)CC1 gave an inhibition of 12% (enzyme activity, inhibitor; 0.1 µM).
O=C(Cc1ccc(OCc2ccccc2)cc1)NC1(C(=O)O)CCN(C(=O)c2ccc(-c3cccc(Cl)c3)cc2)CC1 — result for “activity vs control”: 107% (enzyme activity, inhibitor; 10 µM).
The remaining binding of Nc1ncc2c(n1)-c1c([nH]c3ccc(C4=CCOCC4)cc13)CCC2 is reported as 100% (binding, competition with immobilised ligand; 1 µM).
With C=CC(=O)N1CCc2ccc(-n3c(=O)ccc4cnc5ccc(-c6cnn(C)c6)cc5c43)cc21 the remaining binding was 67% (KINOMEscan; 1 µM; relative to: DMSO control).
C=CC(=O)N1CCCC(n2c(=O)c3ncccc3n(Cc3ccc(Oc4ccccc4)cc3)c2=O)C1 (centres unmarked) gave a remaining binding of 84% (cell-free assay, competition with immobilised ligand; 1 µM).
Cc1ccc(C(=O)Nc2ccc(CN3CCN(C)CC3)c(C(F)(F)F)c2)cc1C#Cc1cnc2cccnn12 gave an upper asymptote of 11000 (target engagement, NanoBRET; human cells).
COc1cc(Nc2nc(C)cc(-c3cnn4nc(OC)ccc34)n2)cc(C(F)(F)F)c1 has a remaining activity of 90% (inhibitor; 1 µM, NDR1; relative to: control).
The inhibition of CCn1cc(C(=O)O)c(=O)c2c(N)c(F)c(NC3CCCCC3)cc21 is reported as 3.6% (kinase activity; 0.1 µM, added: ATP at Km).
The remaining binding of CCN1CCN(Cc2ccc(C(=O)Nc3ccc(C)c(NCc4cnc5[nH]ccc5c4OC)c3)cc2C(F)(F)F)CC1 is reported as 48% (binding, competition with immobilised ligand; 1 µM).
COc1cc(Nc2nccc(-c3cnn4nc(OC)ccc34)n2)cc(C(F)(F)F)c1 has a remaining binding of 82% (binding, competition with immobilised ligand; 1 µM).
C=CC(=O)N1Cc2nc(-c3cc(-c4cc(Cl)cnc4Cl)c(F)cc3F)n(-c3ccncn3)c2C1 gave an inhibition of 0% (cell-free assay, inhibitor; 1 µM).
With Cc1ccc(-c2c(/C=C(\C#N)C(=O)NC(C)C)n(CCCO)c3ncnc(N)c23)cc1 the remaining binding was 100% (cell-free assay, competition with immobilised ligand; 1 µM).
The remaining binding of CC(C)=CC1OC(C)(C)C2C=C3C(=O)C(Cl)=CC(O)C3C3C(O)C4OC4C(=O)C132 (centres unmarked) is reported as 67% (cell-free assay, competition with immobilised ligand; 10 µM).
For Cc1cnc2nc1Nc1cccc(c1)COC/C=C/COCc1cc(ccc1OCCN1CCOCC1)N2, the remaining binding was 98% (binding, competition with immobilised ligand; 0.1 µM).
The inhibition of NC(=O)[C@@H](O)C[C@H]1CCc2sc3ncnc(O[C@H]4CC[C@H](N5CCOCC5)CC4)c3c21 is reported as 9% (enzyme activity, inhibitor; 10 µM).
CNC(=O)C1CCN(c2cc(C)c(F)cc2NC(=O)c2ccc(-c3cc(O)ccc3C)c(C)c2)CC1 has a remaining binding of 100% (binding, competition with immobilised ligand; 1 µM).
COc1c(Cl)cccc1Nc1c(-c2ccncc2C#C[C@@]2(C)CCCN2C(=O)/C=C/CN(C)C)[nH]c2c1C(=O)NCC2 has a remaining binding of 61% (binding, competition with immobilised ligand; 3 µM).
With NC(=O)C[C@H]1CCc2sc3ncnc(O[C@H]4CC[C@H](N5CCOCC5)CC4)c3c21 the inhibition was -3% (enzyme activity, inhibitor; 10 µM).

A few entries again:
COc1cc(Nc2nccc(-c3cnn4nc(OC)ccc34)n2)cc(C(F)(F)F)c1 has a remaining binding of 82% (binding, competition with immobilised ligand; 1 µM).
The inhibition of NC(=O)[C@@H](O)C[C@H]1CCc2sc3ncnc(O[C@H]4CC[C@H](N5CCOCC5)CC4)c3c21 is reported as 9% (enzyme activity, inhibitor; 10 µM).
